{"data": "Results collected from several papers", "B1": "Urtica dioica agglutinin; sequence looked up; chain QRCGSQGGGGTCPALWCCSIWGWCGDSEPYCGRTCENKCWSGERSDHRCGAAVGNPPCGQDRCCSVHGWCGGGNDYCSGSKCQYRCSSSVRGPRVALSGNSTANSIGNVVVTEPLFDQMFSHRKDCPSQGFYSYHSFLVAAESFPAFGTIGDVATRKREVAAFLAHISQATSGERSDVENPHAWGLCHINTTTVTENDFCTSSDWPCAAGKKYSPRGPIQLTHNFNYGLAGQAIGEDLIQNPDLVEKDPIISFKTALWFWMSQHDNKPSCHDIVLNANSAANRIPNKGVIGNIISRAFGHDDFAVRSSSIGFYKRYCDMLGVSYGHDLKYWFDNTPSSEFQRIQMRVAA", "note": "Lines come from different studies, so protocols differ. Values joined by “and” are separate records of one study, mostly repeats; a detail may differ."}
{"Substance": "Polymyxin B", "organism": "Escherichia coli", "test system": "KCTC 1682", "conditions": "16 h, 37 °C, Mueller-Hinton broth", "endpoint": "MIC", "result": "2 µM"}
{"Substance": "ILPWNWPWWPWRR", "organism": "Escherichia coli", "test system": "peptide, K-12 MG1655, Mueller-Hinton broth", "conditions": "concentration not given, 37 °C, unit not given", "scale": "baseline: no peptide", "endpoint": "growth rate", "result": 0.0833}
{"Substance": "CLCKKGKCGLCGK", "organism": "Candida albicans", "test": "growth", "test system": "peptide, ATCC 10231, potato dextrose broth", "conditions": "128 µM, 30 °C", "endpoint": "inhibition", "result": "0 fraction (0-1)"}
{"Substance": "Polymyxin B", "organism": "Klebsiella pneumoniae", "test": "broth microdilution", "test system": "parental, KPC-33", "endpoint": "MIC", "result": "32 µg/mL"}
{"Substance": "GMVRGA", "organism": "Bacillus subtilis", "test system": "peptide, SPbeta lysogen", "conditions": "5 µM, added: mitomycin C induction", "scale": "baseline: no peptide", "endpoint": "reduction in infective phage", "result": "10 fold"}
{"Substance": "ILPWLWPWWPWRR", "organism": "Escherichia coli", "test system": "peptide, K-12 MG1655, Mueller-Hinton broth", "conditions": "concentration not given, 37 °C, unit not given", "scale": "baseline: no peptide", "endpoint": "growth rate", "result": 0.000307}
{"Substance": "aspterric acid", "organism": "Arabidopsis thaliana", "test system": "shoots", "conditions": "foliar spray, 200 µg/mL, 20 days", "endpoint": "fresh weight", "result": "389 mg and 400 mg and 390 mg"}
{"Substance": "KRRRGGRLSGFRTAVGY", "organism": "Streptococcus iniae", "test": "bacterial survival, plate count", "test system": "peptide", "conditions": "20 µM, 4 h, room temperature", "scale": "baseline: untreated control", "endpoint": "bacterial killing", "result": "62.4%"}
{"Substance": "Polymyxin B", "organism": "Klebsiella pneumoniae", "test system": "ATCC 700603, Kunming mouse, pneumonia model, lung homogenate", "conditions": "5 mg/kg", "endpoint": "lung bacterial load", "result": "5.08 CFU/mL"}
{"Substance": "RRHQRSRRPYHRMPNP", "organism": "Streptococcus iniae", "test": "bacterial survival, plate count", "test system": "peptide", "conditions": "20 µM, 4 h, room temperature", "scale": "baseline: untreated control", "endpoint": "bacterial killing", "result": "25.2%"}
{"Substance": "ILPWKWPWWPWRR (C-amide)", "organism": "Escherichia coli", "test system": "peptide, K-12 MG1655", "conditions": "concentration not given, 24 h, 37 °C, unit not given", "scale": "baseline: no peptide", "endpoint": "growth rate", "result": 0.125}
{"Substance": "B1 (Urtica dioica agglutinin)", "organism": "feline herpesvirus", "test": "viral replication", "test system": "CRFK", "endpoint": "EC50", "result": "1.9 µg/mL"}
{"Substance": "colistin", "organism": "Aspergillus fumigatus", "test system": "conidia", "conditions": "20 µM, added: caspofungin 0.2 µg/mL", "scale": "baseline: caspofungin alone", "endpoint": "CFU relative to caspofungin alone", "result": "1.2 and 1.11 and 1.64"}
{"Substance": "ILPWPWPWWPWRR", "organism": "Escherichia coli", "test system": "peptide, K-12 MG1655, Mueller-Hinton broth", "conditions": "concentration not given, 37 °C, unit not given", "scale": "baseline: no peptide", "endpoint": "growth rate", "result": 0.128}
{"Substance": "colistin", "organism": "Acinetobacter baumannii", "test system": "1189854, multidrug-resistant", "endpoint": "MIC", "result": "4 µg/mL"}
{"Substance": "Teicoplanin A2-2", "organism": "Enterococcus faecalis", "test system": "vancomycin-susceptible", "endpoint": "MIC", "result": "0.25 µg/mL"}
{"Substance": "Polymyxin B", "organism": "Pseudomonas aeruginosa", "test system": "NCTC 13921, neutropenic CD-1 mouse, thigh infection, thigh", "conditions": "25 mg/kg every 6 h, 26 h post infection", "endpoint": "bacterial burden", "result": "2.32 log10 CFU/g and 2.3 log10 CFU/g and 2.35 log10 CFU/g and 2.47 log10 CFU/g"}
{"Substance": "KKRRRGLSRFRMGRGY", "organism": "Pseudomonas fluorescens", "test": "bacterial survival, plate count", "test system": "peptide", "conditions": "20 µM, 4 h, room temperature", "scale": "baseline: untreated control", "endpoint": "bacterial killing", "result": "30.5%"}
{"Substance": "caspofungin", "organism": "Aspergillus fumigatus", "test system": "pkcA G579R, solid minimal medium", "conditions": "0.125 µg/mL, 4 days, 37 °C", "scale": "baseline: untreated control", "endpoint": "radial growth ratio", "result": "0.128 and 0.138 and 0.16"}
{"Substance": "Ro 31-8220", "organism": "infectious bursal disease virus", "test": "viral infection", "conditions": "concentration not given", "endpoint": "VP2 protein level", "result": "decreased"}
{"Substance": "KYKKSKNGY", "organism": "Streptococcus iniae", "test": "bacterial survival, plate count", "test system": "peptide", "conditions": "20 µM, 4 h, room temperature", "scale": "baseline: untreated control", "endpoint": "bacterial killing", "result": "15.3%"}
{"Substance": "TC-G 1005", "organism": "human coronavirus OC43", "test": "virus-induced cell death", "test system": "MRC-5", "endpoint": "maximum inhibition", "result": "20%"}
{"Substance": "KKPRPWPWKRRKK", "organism": "Candida albicans", "test": "growth", "test system": "peptide, ATCC 10231, potato dextrose broth", "conditions": "128 µM, 30 °C", "endpoint": "inhibition", "result": "0.992 fraction (0-1)"}
{"Substance": "RWRYRRRGYLAMG", "organism": "Pseudomonas fluorescens", "test": "bacterial survival, plate count", "test system": "peptide", "conditions": "20 µM, 4 h, room temperature", "scale": "baseline: untreated control", "endpoint": "bacterial killing", "result": "28.4%"}
{"Substance": "thiostrepton", "organism": "Staphylococcus aureus", "test system": "methicillin-susceptible", "endpoint": "MIC", "result": "0.06 µg/mL"}
{"Substance": "AFTCHCRR / SCYSTEYSYGTCTVMGINHRFCCL (disulfide)", "organism": "Acinetobacter baumannii", "test": "crystal violet staining", "test system": "peptide, 19606", "conditions": "concentration not given", "endpoint": "biofilm formation", "result": "143% and 116% and 166% and 102%"}
{"Substance": "MKRRNRFSSLKLNRGY", "organism": "Streptococcus iniae", "test": "bacterial survival, plate count", "test system": "peptide", "conditions": "20 µM, 4 h, room temperature", "scale": "baseline: untreated control", "endpoint": "bacterial killing", "result": "48%"}
{"Substance": "Ro 48-8071", "organism": "human coronavirus OC43", "test": "virus-induced cell death", "test system": "MRC-5", "endpoint": "maximum inhibition", "result": "21.1%"}
{"Substance": "VRRRRVSRFGRGRGY", "organism": "Micrococcus luteus", "test": "bacterial survival, plate count", "test system": "peptide", "conditions": "20 µM, 4 h, room temperature", "scale": "baseline: untreated control", "endpoint": "bacterial killing", "result": "100%"}
{"Substance": "ILPWAWPWWPWRR", "organism": "Escherichia coli", "test system": "peptide, K-12 MG1655, Mueller-Hinton broth", "conditions": "concentration not given, 37 °C, unit not given", "scale": "baseline: no peptide", "endpoint": "growth rate", "result": 0.00123}
{"Substance": "KRRRRGLPRLGMVTGY", "organism": "Micrococcus luteus", "test": "bacterial survival, plate count", "test system": "peptide", "conditions": "20 µM, 4 h, room temperature", "scale": "baseline: untreated control", "endpoint": "bacterial killing", "result": "48.9%"}
{"Substance": "ILPWHWPWWPWRR", "organism": "Escherichia coli", "test system": "peptide, K-12 MG1655, Mueller-Hinton broth", "conditions": "concentration not given, 37 °C, unit not given", "scale": "baseline: no peptide", "endpoint": "growth rate", "result": 1.03}
{"Substance": "Polymyxin B", "organism": "Klebsiella pneumoniae", "test": "broth microdilution", "test system": "K1 clinical isolate", "conditions": "20 h", "endpoint": "MIC", "result": "4 µg/mL"}
{"note": "A few entries again:"}
{"Substance": "AFTCHCRR / SCYSTEYSYGTCTVMGINHRFCCL (disulfide)", "organism": "Acinetobacter baumannii", "test": "crystal violet staining", "test system": "peptide, 19606", "conditions": "concentration not given", "endpoint": "biofilm formation", "result": "143% and 116% and 166% and 102%"}
{"Substance": "aspterric acid", "organism": "Arabidopsis thaliana", "test system": "shoots", "conditions": "foliar spray, 200 µg/mL, 20 days", "endpoint": "fresh weight", "result": "389 mg and 400 mg and 390 mg"}
{"Substance": "thiostrepton", "organism": "Staphylococcus aureus", "test system": "methicillin-susceptible", "endpoint": "MIC", "result": "0.06 µg/mL"}
{"Substance": "colistin", "organism": "Aspergillus fumigatus", "test system": "conidia", "conditions": "20 µM, added: caspofungin 0.2 µg/mL", "scale": "baseline: caspofungin alone", "endpoint": "CFU relative to caspofungin alone", "result": "1.2 and 1.11 and 1.64"}
{"Substance": "Polymyxin B", "organism": "Escherichia coli", "test system": "KCTC 1682", "conditions": "16 h, 37 °C, Mueller-Hinton broth", "endpoint": "MIC", "result": "2 µM"}
